Results collected from several papers.
Numbered parts are unrelated; each lists some results of a single study.

Study 1
Target: Interferon regulatory factor 7, full length, phosphomimetic (IRF7, Homo sapiens, UniProt Q92985, residues 1-503, S471D/S472D/S475D/S476D/S477D/S483D/S484D/S487D)
Chain of UniProt Q92985 (whole entry, unmodified, looked up): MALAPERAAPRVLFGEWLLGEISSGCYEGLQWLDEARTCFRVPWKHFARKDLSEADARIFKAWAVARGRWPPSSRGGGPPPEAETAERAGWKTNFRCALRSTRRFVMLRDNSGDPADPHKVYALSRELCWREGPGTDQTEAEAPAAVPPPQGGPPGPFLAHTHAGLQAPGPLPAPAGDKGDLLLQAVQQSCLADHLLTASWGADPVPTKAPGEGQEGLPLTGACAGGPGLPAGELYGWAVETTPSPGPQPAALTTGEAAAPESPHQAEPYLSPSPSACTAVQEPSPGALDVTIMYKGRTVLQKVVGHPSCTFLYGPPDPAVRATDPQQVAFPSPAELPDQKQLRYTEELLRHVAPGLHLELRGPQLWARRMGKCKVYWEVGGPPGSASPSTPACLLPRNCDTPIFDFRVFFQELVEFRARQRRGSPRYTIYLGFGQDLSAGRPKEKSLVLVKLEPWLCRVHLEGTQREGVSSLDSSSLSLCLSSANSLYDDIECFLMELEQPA
Method: protein-binding microarray
Molecule type: double-stranded DNA, one strand shown
Medium: in vitro
Tested at: 2200 nM top
Notes: 60-bp whole probe
With: salmon DNA 0.4 mg/ml
Reference: random background probes
Reading: higher = stronger binding
All sequences stand within: GCCTAGCAC … GTCTTGATTCGCTTGACGCTGCTG
Oligonucleotide	fitted relative affinity
GACGGTCCCGGTATCGGGACGTGCTAG	-0.351 z-score
GACGGACTGCTTTTCCTAACGTGCTAG	0.769 z-score
GACGGACTGGGGTTTCAGGACGTGCTA	-0.479 z-score
TAAGGTATCGACACTGGGTTAGTGCTA	-0.348 z-score
GACGAACCGAGTCTCGAGACGTGCTAG	0.442 z-score
GACGGTTTCGGTTTGGGGACGTGCTAG	14.4 z-score
GATTTCTTCCCTGTGAAAACGTGCTAG	1.66 z-score

Study 2
Target: Histone acetyltransferase KAT6A, both winged helices, GST fusion (KAT6A, Homo sapiens, UniProt Q92794, residues 1-181)
Method: protein binding microarray
Molecule type: double-stranded DNA, one strand shown
Medium: in vitro
Tested at: not given
Notes: 8-mer, flanks averaged, mean of 2 arrays, mostly near background
Reference: not given
Reading: higher = stronger binding
Target sequence (chain): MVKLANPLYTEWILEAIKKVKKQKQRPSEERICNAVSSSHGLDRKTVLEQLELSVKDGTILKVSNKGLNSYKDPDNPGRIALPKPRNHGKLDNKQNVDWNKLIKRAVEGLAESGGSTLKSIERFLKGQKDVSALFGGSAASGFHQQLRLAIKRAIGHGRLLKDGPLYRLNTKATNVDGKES
Oligonucleotide	E-score
AACAATGG	-0.109
AAAACGTA	-0.0938
GCTGAACA	-0.121
AGGAGGAA	-0.128
GTGCTCTA	-0.112
GGGCGGTA	0.162
GAATCTAA	0.0331
AGTTTTGC	0.0473
AAAACTCC	-0.0594

Study 3
Target: Sal-like protein 4, full length isoform A (SALL4, Homo sapiens, UniProt Q9UJQ4, residues 1-1053)
Chain of UniProt Q9UJQ4 (whole entry, looked up): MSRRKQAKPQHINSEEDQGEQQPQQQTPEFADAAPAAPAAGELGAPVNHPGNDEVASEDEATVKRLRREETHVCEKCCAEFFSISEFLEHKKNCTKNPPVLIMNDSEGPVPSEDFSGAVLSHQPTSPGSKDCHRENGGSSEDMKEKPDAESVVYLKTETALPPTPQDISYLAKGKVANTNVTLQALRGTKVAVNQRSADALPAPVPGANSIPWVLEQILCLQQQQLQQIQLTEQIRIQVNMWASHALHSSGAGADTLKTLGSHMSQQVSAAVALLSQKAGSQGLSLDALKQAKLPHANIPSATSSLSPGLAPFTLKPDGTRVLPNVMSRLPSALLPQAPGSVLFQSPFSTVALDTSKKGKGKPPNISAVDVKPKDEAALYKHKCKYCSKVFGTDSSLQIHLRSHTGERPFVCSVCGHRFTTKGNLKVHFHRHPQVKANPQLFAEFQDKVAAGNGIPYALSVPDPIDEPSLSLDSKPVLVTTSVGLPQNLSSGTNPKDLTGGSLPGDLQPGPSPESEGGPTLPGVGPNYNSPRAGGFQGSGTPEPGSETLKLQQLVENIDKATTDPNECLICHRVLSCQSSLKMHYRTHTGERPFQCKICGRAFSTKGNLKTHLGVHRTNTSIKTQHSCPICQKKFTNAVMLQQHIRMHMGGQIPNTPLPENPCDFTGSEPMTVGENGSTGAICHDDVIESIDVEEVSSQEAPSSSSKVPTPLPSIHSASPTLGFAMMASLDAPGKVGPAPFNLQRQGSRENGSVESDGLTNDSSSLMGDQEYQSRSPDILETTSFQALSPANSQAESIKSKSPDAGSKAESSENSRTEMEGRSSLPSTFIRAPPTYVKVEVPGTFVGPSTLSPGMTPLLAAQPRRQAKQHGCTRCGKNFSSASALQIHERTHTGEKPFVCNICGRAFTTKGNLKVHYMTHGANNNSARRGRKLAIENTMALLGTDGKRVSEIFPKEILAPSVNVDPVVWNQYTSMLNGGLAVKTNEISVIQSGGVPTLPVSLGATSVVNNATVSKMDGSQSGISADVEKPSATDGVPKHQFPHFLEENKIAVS
Method: universal PBM
Molecule type: double-stranded DNA, one strand shown
Medium: in vitro
Tested at: 600 nM
Notes: 8-mer, flanks averaged, mean of replicates
Reading: higher = stronger binding
Oligonucleotide	E-score
CATCCCAC	-0.162
AGGTAATC	0.0812
CTCTTGAC	-0.094
AGGCTTCC	-0.134
ATGCTCGA	0.0856
CCGTGGAG	-0.161
AGCATCAC	-0.172
ACATCCCC	-0.161

Further values, each from its own experiment
Molecule	target	test	test system	setting	how to read	endpoint	value
PhoQ, residues 284 288 289 292 302 303 GTAMQF	PhoP, residues 12 14 15 18 19 GHCSL (Escherichia coli, UniProt P23836)	Sort-seq, refers to: YFP reporter	E. coli	PhoQ-PhoP variant library, with: 10 µM Mg2+	reference: high Mg2+ state, higher = stronger signaling	fold induction	20.5
